Measured values from different studies.
Each numbered part is a random draw from the data of one study; scales do not carry over between parts.
UniProt Q9UIK4, sequence (whole entry, looked up): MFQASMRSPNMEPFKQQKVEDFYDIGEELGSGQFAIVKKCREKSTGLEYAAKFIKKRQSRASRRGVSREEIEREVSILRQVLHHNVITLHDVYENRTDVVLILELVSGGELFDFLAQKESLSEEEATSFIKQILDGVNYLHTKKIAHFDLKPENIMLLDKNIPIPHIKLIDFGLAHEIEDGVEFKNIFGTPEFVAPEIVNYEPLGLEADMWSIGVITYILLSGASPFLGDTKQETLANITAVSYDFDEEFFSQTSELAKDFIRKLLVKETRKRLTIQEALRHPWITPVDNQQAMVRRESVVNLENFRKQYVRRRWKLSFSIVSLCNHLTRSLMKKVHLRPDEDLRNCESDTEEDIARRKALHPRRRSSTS
UniProt Q15831, sequence (whole entry, looked up): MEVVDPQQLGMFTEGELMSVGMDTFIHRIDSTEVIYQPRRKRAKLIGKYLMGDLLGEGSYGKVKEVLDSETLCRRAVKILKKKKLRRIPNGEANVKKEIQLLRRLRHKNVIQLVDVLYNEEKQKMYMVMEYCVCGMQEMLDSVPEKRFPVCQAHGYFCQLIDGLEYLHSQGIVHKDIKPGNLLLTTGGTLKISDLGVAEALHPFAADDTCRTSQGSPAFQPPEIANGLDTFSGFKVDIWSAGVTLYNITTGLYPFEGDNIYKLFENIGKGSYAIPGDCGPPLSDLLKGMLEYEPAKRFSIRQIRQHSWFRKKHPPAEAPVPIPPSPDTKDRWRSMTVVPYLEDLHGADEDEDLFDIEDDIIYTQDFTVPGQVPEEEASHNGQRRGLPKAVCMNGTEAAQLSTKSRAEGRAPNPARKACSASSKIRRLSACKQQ
UniProt Q00535, sequence (whole entry, looked up): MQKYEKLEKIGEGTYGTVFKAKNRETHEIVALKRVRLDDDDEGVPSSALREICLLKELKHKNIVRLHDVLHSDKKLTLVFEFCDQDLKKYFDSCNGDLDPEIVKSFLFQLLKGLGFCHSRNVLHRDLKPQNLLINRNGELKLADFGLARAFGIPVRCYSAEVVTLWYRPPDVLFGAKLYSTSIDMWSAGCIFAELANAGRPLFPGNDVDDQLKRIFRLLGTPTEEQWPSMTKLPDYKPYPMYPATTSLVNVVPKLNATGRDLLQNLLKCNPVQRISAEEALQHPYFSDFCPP
UniProt O96017, sequence (whole entry, looked up): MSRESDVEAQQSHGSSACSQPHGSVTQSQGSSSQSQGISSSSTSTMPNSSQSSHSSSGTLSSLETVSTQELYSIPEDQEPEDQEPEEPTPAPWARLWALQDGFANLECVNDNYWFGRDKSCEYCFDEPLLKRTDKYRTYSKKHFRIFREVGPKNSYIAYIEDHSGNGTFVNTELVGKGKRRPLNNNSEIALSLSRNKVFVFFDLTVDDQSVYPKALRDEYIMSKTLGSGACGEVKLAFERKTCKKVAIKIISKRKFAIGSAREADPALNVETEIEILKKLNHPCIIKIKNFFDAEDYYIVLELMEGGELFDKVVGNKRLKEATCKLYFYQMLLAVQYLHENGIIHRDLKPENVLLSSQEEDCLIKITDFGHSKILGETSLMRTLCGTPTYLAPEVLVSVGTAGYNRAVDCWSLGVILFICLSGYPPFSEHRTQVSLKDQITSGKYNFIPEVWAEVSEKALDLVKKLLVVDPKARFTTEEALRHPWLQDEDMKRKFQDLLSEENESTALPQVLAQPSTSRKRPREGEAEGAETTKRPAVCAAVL
UniProt P35626, sequence (whole entry, looked up): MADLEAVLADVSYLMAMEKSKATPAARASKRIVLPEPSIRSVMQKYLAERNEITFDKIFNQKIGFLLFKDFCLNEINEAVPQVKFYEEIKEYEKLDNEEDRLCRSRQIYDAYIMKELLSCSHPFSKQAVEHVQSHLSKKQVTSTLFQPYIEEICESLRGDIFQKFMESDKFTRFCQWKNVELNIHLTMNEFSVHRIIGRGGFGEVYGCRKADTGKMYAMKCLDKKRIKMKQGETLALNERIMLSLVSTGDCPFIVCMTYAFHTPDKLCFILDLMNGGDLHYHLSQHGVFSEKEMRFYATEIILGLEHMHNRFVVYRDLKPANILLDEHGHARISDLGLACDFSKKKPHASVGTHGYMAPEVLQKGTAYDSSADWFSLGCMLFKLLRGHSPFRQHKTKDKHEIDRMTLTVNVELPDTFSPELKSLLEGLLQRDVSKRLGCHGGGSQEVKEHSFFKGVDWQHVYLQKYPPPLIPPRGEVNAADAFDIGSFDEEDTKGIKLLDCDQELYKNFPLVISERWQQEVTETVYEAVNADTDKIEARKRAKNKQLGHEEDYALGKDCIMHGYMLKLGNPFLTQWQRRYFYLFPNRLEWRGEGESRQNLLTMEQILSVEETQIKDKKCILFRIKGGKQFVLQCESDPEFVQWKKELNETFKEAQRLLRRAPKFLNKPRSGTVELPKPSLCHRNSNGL

Block 1 — technique: RNAcompete; molecule type: RNA; medium: in vitro; concentration: 20 nM; setting: 7-mer, probes averaged, single round; relative to: mean of 7-mers; direction: higher = stronger binding
Target: PABPC1L2, full length, GST fusion (mouse, UniProt A0ABA7IW68)
Target sequence (chain): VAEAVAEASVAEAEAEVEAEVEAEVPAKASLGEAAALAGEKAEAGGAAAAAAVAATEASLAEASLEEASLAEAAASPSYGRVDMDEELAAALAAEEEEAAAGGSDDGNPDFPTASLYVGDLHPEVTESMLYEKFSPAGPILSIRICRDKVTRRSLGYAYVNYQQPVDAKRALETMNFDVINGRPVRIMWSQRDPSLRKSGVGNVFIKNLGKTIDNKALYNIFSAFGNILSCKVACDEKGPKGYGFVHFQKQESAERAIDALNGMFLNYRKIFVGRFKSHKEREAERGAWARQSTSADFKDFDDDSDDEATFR
Oligonucleotide	7-mer Z-score
UCGGUGA	-0.195
AGUAGAG	-0.0391
UAGCCGG	-0.0899
GGGCUCC	-0.0264
AAGGCAG	0.401
GAAGUAC	-0.177
AACUCCA	0.066
AAUUGCA	0.26

Block 2 — read-out: enzyme activity; mode: inhibitor; concentration: 0.5 µM; relative to: control
SMILES: CN(C)S(=O)(=O)c1ccc2c(c1)/C(=C/c1cc3c([nH]1)CCCC3)C(=O)N2
target	remaining activity [%]
Cyclin-dependent kinase 5, with p25 (CDK5, Homo sapiens, UniProt Q00535)	72.9
GRK3 (Homo sapiens, UniProt P35626)	97
STK11 (Homo sapiens, UniProt Q15831)	90.4
CHEK2 (Homo sapiens, UniProt O96017)	46.1
STK39 (Homo sapiens, UniProt Q9UEW8)	99.5
DAPK2 (Homo sapiens, UniProt Q9UIK4)	93.5

Block 3 — technique: protein-binding microarray; molecule type: double-stranded DNA, one strand shown; medium: in vitro; concentration: not given; direction: higher = stronger binding
Target: Microphthalmia-associated transcription factor, full length (MITF, Homo sapiens, UniProt O75030-10, residues 1-413)
Setting: k-mer, scored over probes, only values ≥0.25
Oligonucleotide	E-score
GCGTGTA	0.251
ACGTGAG	0.331
TGTCACA	0.377
CGGGGTC	0.259
ATCACGC	0.432
ACATGAC	0.413
ACGTGCT	0.342
ACACACG	0.262

Block 4 — read-out: radioligand binding; technique: radioligand displacement; concentration: 10 µM
Target: Translocator protein (Tspo, Rattus norvegicus, UniProt P16257)
UniProt P16257, sequence (whole entry, looked up): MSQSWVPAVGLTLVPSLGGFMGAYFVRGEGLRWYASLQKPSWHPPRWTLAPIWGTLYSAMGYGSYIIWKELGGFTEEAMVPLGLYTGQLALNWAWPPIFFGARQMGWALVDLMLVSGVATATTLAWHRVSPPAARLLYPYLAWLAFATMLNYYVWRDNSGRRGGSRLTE
SMILES	inhibition
Cc1c(C(=O)O)cc(-c2ccc(C3CCNCC3)cc2)c2ccc(-c3ccc(C(F)(F)F)cc3)cc12	-32.4%
Cc1c[nH]c2nccc(Oc3c(F)cc(Nc4cc(Cl)nc(N)n4)cc3F)c12	24.9%
CC(=O)C1=C(C)N(c2cccc(C(F)(F)F)c2)C(=O)N[C@H]1c1ccc(C#N)nc1	-17.8%
O=C(NCc1ncc(C(F)(F)F)cc1Cl)c1ccc2c(c1)C1(CCS(=O)(=O)CC1)[C@@H](C1CC1)N2S(=O)(=O)c1ccc(F)cc1	-27.9%
CN([C@@H]1CCc2c(CC(=O)O)c3cc(S(C)(=O)=O)ccc3n2C1)S(=O)(=O)c1ccc(F)cc1	41.4%
CC(=O)Nc1ncc(CN2CCC[C@H](Cc3cc(C)nc(C)c3)C2)s1	5.69%
Cc1nccc(COC(=O)N2C[C@@H]3[C@@H](CNC(=O)c4ccc5[nH]nnc5c4)[C@@H]3C2)n1	-4.4%

Repeated from above (block 4):
SMILES	inhibition
Cc1c[nH]c2nccc(Oc3c(F)cc(Nc4cc(Cl)nc(N)n4)cc3F)c12	24.9%
Cc1c(C(=O)O)cc(-c2ccc(C3CCNCC3)cc2)c2ccc(-c3ccc(C(F)(F)F)cc3)cc12	-32.4%
CC(=O)Nc1ncc(CN2CCC[C@H](Cc3cc(C)nc(C)c3)C2)s1	5.69%
